{"data": "Measured values collected from several papers", "note": "Each numbered part is a random draw from the data of one study; scales do not carry over between parts. Substitutions count along the parent as printed."}
{"data": "Set 1", "target": "Sal-like protein 4, full length isoform B (SALL4, Homo sapiens, UniProt Q9UJQ4-2, residues 1-616)", "method": "universal PBM", "molecule type": "double-stranded DNA, one strand shown", "matrix": "in vitro", "tested at": "not given", "setting": "8-mer, flanks averaged, mean of replicates", "direction": "higher = stronger binding", "Residues (chain)": "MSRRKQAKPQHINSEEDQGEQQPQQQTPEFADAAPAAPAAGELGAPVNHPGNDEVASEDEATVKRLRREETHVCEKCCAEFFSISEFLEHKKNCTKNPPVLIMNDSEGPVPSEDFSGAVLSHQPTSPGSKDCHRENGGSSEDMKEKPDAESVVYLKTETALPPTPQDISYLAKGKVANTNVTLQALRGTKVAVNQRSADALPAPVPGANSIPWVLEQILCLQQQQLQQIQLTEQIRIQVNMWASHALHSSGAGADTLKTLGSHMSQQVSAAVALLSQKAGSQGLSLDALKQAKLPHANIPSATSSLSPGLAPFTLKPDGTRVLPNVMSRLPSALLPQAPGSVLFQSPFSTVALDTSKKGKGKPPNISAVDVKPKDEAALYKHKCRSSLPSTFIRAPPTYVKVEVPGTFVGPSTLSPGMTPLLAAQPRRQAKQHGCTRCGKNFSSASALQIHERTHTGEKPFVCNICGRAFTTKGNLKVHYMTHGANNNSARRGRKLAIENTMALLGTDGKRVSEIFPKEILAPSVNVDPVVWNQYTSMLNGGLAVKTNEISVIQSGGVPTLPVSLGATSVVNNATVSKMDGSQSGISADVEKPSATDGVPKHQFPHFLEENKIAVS"}
{"Sequence": "ACGCCGTG", "E-score": -0.253}
{"Sequence": "CACGATCA", "E-score": 0.0917}
{"Sequence": "CCGACATC", "E-score": -0.166}
{"Sequence": "CAAGCAGC", "E-score": -0.106}
{"Sequence": "CAATTGCC", "E-score": 0.114}
{"Sequence": "AGTCGTTG", "E-score": -0.0997}
{"Sequence": "GTAACATA", "E-score": 0.217}
{"Sequence": "ACCGTACG", "E-score": -0.0837}
{"data": "Set 2", "target": "Histone acetyltransferase KAT6A, both winged helices, GST fusion (KAT6A, Homo sapiens, UniProt Q92794, residues 1-181)", "method": "protein binding microarray", "molecule type": "double-stranded DNA, one strand shown", "matrix": "in vitro", "tested at": "not given", "setting": "8-mer, flanks averaged, mean of 2 arrays, mostly near background", "relative to": "not given", "direction": "higher = stronger binding", "Target sequence (chain)": "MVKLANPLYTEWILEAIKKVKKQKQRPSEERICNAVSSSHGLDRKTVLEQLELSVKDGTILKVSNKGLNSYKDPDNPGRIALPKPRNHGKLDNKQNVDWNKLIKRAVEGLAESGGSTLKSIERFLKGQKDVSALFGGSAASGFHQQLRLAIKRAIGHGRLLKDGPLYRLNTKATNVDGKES"}
{"Sequence": "ATCTGAAA", "E-score": -0.0521}
{"Sequence": "ACTACTAA", "E-score": -0.0605}
{"Sequence": "CGCGTGAG", "E-score": 0.254}
{"Sequence": "CCAAGACA", "E-score": -0.177}
{"Sequence": "GCAAGTTA", "E-score": -0.0767}
{"Sequence": "ATAGACCG", "E-score": 0.0737}
{"Sequence": "AGTGTAGC", "E-score": -0.0448}
{"Sequence": "AGCAAAAA", "E-score": -0.174}
{"data": "Set 3", "target": "CREB3, bZIP domain (human)", "method": "DHFR protein complementation", "matrix": "yeast", "setting": "single substitutions, most at no-binding floor", "relative to": "wild-type JUN-FOS pair", "direction": "higher = stronger binding", "starting sequence": "JUN, bZIP domain (human); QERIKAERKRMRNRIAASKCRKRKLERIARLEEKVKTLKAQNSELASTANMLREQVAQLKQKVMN; partner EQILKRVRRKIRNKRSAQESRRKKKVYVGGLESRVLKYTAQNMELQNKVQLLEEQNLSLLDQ"}
{"Substitution": "A46Y", "binding fitness [natural log]": -1.48}
{"Substitution": "A40S", "binding fitness [natural log]": -1.45}
{"Substitution": "K36I", "binding fitness [natural log]": -1.33}
{"Substitution": "E32F", "binding fitness [natural log]": -1.39}
{"Substitution": "A49L", "binding fitness [natural log]": -1.33}
{"Substitution": "E33S", "binding fitness [natural log]": -1.48}
{"Substitution": "K39G", "binding fitness [natural log]": -1.43}
{"Substitution": "A46M", "binding fitness [natural log]": -1.02}
{"data": "Mixed results", "starting sequence": "PafA, mature enzyme, eGFP fusion (Elizabethkingia meningoseptica, UniProt Q9KJX5); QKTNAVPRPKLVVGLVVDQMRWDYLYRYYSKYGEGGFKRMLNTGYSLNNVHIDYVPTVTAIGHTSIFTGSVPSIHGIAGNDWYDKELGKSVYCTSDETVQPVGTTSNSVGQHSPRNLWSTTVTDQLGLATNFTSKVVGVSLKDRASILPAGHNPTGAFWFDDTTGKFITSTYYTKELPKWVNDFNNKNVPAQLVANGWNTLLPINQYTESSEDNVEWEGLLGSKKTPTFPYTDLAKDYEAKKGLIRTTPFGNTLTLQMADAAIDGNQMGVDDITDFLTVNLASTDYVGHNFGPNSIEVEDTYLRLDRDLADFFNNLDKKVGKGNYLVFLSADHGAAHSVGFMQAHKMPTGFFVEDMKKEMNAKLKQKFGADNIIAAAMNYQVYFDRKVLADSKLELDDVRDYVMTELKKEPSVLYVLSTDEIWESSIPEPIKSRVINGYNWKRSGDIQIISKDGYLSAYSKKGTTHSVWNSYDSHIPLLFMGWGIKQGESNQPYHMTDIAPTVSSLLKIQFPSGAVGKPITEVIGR"}
{"Substitution": "S490V", "target": "tungstate, free oxyanion", "assay": "microfluidic competitive inhibition", "system": "in vitro, cell-free expressed", "conditions": "not given, derived from inhibition constants, unchanged parent 2230 nM", "how to read": "lower = stronger binding", "measurement": "oxyanion analog dissociation constant", "value": "2.08 µM"}
{"note": "For quick reference, copied from above (set 3):"}
{"Substitution": "A46Y", "binding fitness [natural log]": -1.48}
{"Substitution": "E32F", "binding fitness [natural log]": -1.39}
{"Substitution": "E33S", "binding fitness [natural log]": -1.48}
{"Substitution": "A40S", "binding fitness [natural log]": -1.45}
